Published values pooled from the literature.
± marks the error that the study gave.
rep R3428I 3C-like proteinase: Replicase polyprotein 1ab, 3C-like proteinase (rep, Severe acute respiratory syndrome-related coronavirus, UniProt P0C6X7, R3428I)
L/N: L/N (Lassa virus, UniProt O09705+P13699)
OPRL1: Nociceptin receptor (OPRL1, Homo sapiens, UniProt P41146)

Chains of the proteins cited; added tags and fusions are not shown. Residues count along the entry.
UniProt P41146, whole entry: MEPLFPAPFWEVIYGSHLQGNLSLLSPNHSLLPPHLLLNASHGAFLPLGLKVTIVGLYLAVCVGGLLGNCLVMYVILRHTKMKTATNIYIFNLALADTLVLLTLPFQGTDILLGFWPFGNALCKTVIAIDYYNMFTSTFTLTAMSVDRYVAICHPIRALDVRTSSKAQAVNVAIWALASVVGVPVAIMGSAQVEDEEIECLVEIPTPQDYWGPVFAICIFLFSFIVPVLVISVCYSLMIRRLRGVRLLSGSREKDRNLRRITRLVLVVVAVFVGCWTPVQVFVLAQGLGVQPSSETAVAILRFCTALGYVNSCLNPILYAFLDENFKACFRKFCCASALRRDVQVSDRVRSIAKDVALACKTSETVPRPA
UniProt P49582, 23-502 limits assumed: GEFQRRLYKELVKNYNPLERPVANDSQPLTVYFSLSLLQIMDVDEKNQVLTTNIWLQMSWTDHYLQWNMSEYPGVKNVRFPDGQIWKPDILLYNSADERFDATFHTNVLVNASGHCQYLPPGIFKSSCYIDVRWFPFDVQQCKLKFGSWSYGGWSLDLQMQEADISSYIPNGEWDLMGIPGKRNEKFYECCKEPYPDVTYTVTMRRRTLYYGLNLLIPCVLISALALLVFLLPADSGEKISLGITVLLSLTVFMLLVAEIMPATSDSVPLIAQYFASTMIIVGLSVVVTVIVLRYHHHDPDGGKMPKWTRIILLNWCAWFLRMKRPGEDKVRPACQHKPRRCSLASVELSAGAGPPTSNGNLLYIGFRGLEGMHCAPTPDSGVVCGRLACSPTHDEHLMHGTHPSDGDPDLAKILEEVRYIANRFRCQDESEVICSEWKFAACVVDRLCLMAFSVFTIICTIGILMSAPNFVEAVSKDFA
UniProt P21462, whole entry: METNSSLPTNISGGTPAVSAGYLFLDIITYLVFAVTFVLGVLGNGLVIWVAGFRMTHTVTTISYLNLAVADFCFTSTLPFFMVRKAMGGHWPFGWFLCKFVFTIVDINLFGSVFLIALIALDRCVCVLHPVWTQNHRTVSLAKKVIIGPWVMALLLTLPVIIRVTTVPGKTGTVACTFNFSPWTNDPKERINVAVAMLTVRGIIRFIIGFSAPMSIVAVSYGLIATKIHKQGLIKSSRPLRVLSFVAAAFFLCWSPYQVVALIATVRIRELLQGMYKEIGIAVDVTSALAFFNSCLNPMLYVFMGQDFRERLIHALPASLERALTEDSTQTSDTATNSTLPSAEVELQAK
UniProt P41144, whole entry: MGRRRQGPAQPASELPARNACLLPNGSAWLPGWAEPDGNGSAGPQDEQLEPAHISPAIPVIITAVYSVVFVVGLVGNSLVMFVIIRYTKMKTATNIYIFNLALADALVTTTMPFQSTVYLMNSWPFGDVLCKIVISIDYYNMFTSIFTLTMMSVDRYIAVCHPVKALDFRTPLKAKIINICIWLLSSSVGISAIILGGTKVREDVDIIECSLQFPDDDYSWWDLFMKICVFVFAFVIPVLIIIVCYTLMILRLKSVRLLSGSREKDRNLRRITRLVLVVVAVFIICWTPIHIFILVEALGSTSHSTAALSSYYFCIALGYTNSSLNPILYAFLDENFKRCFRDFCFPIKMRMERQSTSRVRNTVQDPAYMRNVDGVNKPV
UniProt P33533, whole entry: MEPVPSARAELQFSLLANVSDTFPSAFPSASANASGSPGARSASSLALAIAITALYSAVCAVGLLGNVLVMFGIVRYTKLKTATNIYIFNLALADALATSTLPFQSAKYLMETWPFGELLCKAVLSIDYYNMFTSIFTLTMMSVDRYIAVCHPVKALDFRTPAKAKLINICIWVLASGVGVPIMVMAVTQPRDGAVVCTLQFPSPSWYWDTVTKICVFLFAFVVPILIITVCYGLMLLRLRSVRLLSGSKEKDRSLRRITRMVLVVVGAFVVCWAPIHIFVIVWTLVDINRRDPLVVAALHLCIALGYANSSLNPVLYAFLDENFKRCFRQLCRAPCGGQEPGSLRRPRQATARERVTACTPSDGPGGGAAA
UniProt Q8N3R9, 256-336 F318W limits assumed: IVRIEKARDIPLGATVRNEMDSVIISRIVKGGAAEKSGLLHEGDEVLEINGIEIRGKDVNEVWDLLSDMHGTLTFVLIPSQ
UniProt P35372, whole entry: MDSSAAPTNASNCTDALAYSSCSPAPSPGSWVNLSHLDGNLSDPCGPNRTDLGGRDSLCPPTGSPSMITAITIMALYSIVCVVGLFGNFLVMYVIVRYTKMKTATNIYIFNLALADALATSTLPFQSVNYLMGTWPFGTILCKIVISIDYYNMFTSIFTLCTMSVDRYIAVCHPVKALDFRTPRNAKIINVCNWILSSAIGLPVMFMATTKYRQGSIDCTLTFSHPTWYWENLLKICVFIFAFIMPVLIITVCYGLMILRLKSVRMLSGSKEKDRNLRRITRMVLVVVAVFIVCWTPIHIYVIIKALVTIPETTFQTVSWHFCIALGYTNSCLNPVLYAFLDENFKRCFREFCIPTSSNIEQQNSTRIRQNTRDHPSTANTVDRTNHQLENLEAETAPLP
UniProt Q869C3, whole entry, looked up: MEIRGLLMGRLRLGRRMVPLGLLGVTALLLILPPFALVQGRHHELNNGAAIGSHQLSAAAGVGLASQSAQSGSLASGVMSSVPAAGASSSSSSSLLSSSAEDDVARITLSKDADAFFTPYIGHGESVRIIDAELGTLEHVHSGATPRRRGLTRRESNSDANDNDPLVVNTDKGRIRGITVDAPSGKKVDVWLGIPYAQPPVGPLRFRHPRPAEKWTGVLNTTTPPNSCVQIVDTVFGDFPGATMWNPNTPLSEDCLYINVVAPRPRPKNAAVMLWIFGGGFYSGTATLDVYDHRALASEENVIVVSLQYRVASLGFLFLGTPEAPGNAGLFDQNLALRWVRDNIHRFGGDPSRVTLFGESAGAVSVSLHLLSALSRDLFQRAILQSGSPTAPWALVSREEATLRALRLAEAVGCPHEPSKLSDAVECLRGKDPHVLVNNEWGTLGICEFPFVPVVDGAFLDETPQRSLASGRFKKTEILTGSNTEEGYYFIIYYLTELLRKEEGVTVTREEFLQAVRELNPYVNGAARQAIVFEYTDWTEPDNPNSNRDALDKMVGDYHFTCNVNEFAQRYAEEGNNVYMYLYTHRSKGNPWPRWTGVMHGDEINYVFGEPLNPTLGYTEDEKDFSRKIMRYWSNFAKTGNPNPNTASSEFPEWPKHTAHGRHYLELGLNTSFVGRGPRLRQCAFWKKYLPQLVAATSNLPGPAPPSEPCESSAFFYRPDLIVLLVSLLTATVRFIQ

Compound | tested on | assay | test system | setting | how to read | quantity | value
O=C(/C=C/c1ccccc1)N[C@H](COC(=O)c1ccncc1)C(=O)NC1CCCCC1 | rep R3428I 3C-like proteinase | enzyme activity, inhibitor, HPLC substrate depletion |  | pH 4.0 |  | IC50 | 210000 nM
O=S1(=O)c2ccc(F)cc2-c2ccc(N3CCN4CCC3CC4)cc21 [fluorine-18 labelled] | Chrna7 (Mus musculus, UniProt P49582) |  | CD-1 mouse, Chrna7-rich brain regions | 90 min, self-blockade |  | baseline to blockade ratio | 5
CCC1C(=O)N(C2CCN(C3CCc4ccccc4C3)CC2)c2ccccc21 (stereo not shown) | OPRK1 (Homo sapiens, UniProt P41145) | radioligand displacement |  | together with: tritiated U-69593 |  | Ki | 15.1 ± 1.6 nM
CO/C=C(/C(=O)OC)c1ccccc1Oc1cc(Oc2ccccc2C#N)ncn1 | L/N | viral replication, Gaussia luciferase reporter |  |  |  | EC50 | 7030 nM
CN(C)[C@]1(c2ccccc2)CC[C@]2(CC1)OCCc1c3cc(F)ccc3[nH]c12 | OPRL1 | cAMP, agonist |  | human receptor |  | EC50 | 45.5 ± 10.5 nM
CCC1C(=O)N(C2CCN([C@H]3CC[C@@H]4CCCc5cccc3c54)CC2)c2ccccc21 (relative stereo) | OPRL1 | agonist | cell membranes |  |  | EC50 | 21.7 ± 5.6 nM
CC[C@H](C)[C@H](N)C(=O)N[C@@H](CC(=O)O)C(=O)N[C@@H](CCCNC(=N)N)C(=O)N[C@@H](CC(C)C)C(=O)N[C@@H](CC(N)=O)C(=O)N[C@@H](CCC(=O)O)C(=O)N[C@H](C(=O)N[C@@H](C)C(=O)N[C@@H](CCCCN)C(=O)N[C@@H](CC(N)=O)C(=O)N[C@@H](CC(C)C)C(=O)N[C@@H](CC(N)=O)C(=O)N[C@@H](CCC(=O)O)C(=O)N[C@@H](CO)C(=O)N[C@@H](CC(C)C)C(=O)N[C@H](C(=O)N[C@@H](CC(=O)O)C(=O)N[C@@H](CC(C)C)C(=O)N[C@@H](CCC(N)=O)C(=O)N[C@@H](CCC(=O)O)C(=O)N[C@@H](CC(C)C)C(=O)NCC(=O)N[C@@H](CCCCN)C(=O)N[C@@H](Cc1ccc(O)cc1)C(=O)N[C@@H](CCC(=O)O)C(=O)N[C@@H](CCC(N)=O)C(=O)N[C@@H](Cc1ccc(O)cc1)C(=O)N[C@H](C(=O)N[C@@H](CCCCN)C(=O)N[C@@H](Cc1c[nH]c2ccccc12)C(=O)N1CCC[C@H]1C(=O)N[C@@H](Cc1c[nH]c2ccccc12)C(=O)N[C@@H](Cc1ccc(O)cc1)C(=O)N[C@H](C(=O)N[C@@H](Cc1c[nH]c2ccccc12)C(=O)N[C@@H](CC(C)C)C(=O)O)C(C)C)[C@@H](C)CC)[C@@H](C)CC)C(C)C | FPR1 (Homo sapiens, UniProt P21462) | binding, competition binding |  | 4 °C, together with: formyl-Nle-Leu-Phe-Nle-Tyr-Lys-FITC 0.3 nM |  | Ki | 3270 ± 250 nM
O=C(/C=C/c1ccccc1)N[C@@H](COC(=O)c1ccccn1)C(=O)NC1CCCCC1 | rep R3428I 3C-like proteinase | enzyme activity, inhibitor, HPLC substrate depletion |  | pH 4.0 |  | IC50 | 560000 nM
CCCSc1nc(N[C@@H]2C[C@H]2c2ccc(F)c(F)c2)c2nnn([C@@H]3C[C@H](OCCO)[C@@H](O)[C@H]3O)c2n1 |  |  | STEMI patients, plasma | oral, 180 mg loading dose, median, together with: fentanyl |  | Tmax | 6 h
CC(C)C[C@H](NC(=O)[C@@H](NC(=O)COc1ccc(O)cc1)C(C)C)C(=O)N[C@@H](C[C@@H]1CCNC1=O)C(=O)c1nc2ccccc2s1 | rep R3428I 3C-like proteinase | enzyme activity, inhibitor, HPLC |  | 60 min, 37 °C, together with: substrate 111 µM |  | IC50 | 1200 nM
Cc1cc(/C=C/C#N)cc(C)c1Oc1nc(NC2CCN(Cc3ccc(P(C)(C)=O)cc3)CC2)nc2ccsc12 | Human immunodeficiency virus 1 | viral replication | MT-4, Y181C mutant |  | reference: doravirine EC50 over compound EC50 | potency ratio | ~4.98 fold
CC(C)C[C@H](NC(=O)CNC(=O)[C@@H](N)Cc1ccccc1)C(=O)N[C@@H](Cc1ccccc1)C(=O)N[C@@H](CC(=O)O)C(=O)O | Shiga-like toxin 2 subunit A, A1 fragment (UniProt P09385) | SPR | 0.5% DMSO | pH 7.4 |  | Kd | 125000 ± 27000 nM
O=CN1CC[C@]23c4c5ccc(O)c4O[C@H]2[C@@H](O)C=C[C@H]3[C@H]1C5 | OPRK1 (Cavia porcellus, UniProt P41144) | antagonist | guinea pig ileum |  |  | Kb | 1890 ± 300 nM
CO[C@]12CC[C@@]3(C[C@@H]1[C@](C)(O)c1cccs1)[C@H]1Cc4ccc(O)c5c4[C@@]3(CCN1CC1CC1)[C@H]2O5 | Oprd1 (Rattus norvegicus, UniProt P33533) | binding, radioligand displacement | C6 rat glioma | together with: [3H]diprenorphine |  | Ki | 1 ± 0.22 nM
CN(C)[C@]1(c2ccccc2)CC[C@]2(CC1)OCCc1c3cc(F)ccc3[nH]c12 | OPRK1 (Homo sapiens, UniProt P41145) | binding | CHO cell membranes |  |  | Kd | 448 nM
NC12CC3CC(CC(C3)C1)C2 | Influenza A virus | viral replication, plaque size reduction | MDCK, A/Swine/Indiana/27-1102/2010 (H3N2) |  |  | EC50 | 68300 ± 3100 nM
CC[C@H](C)[C@H](NC(=O)[C@H](CC(C)C)NC(=O)[C@H](CCCNC(=N)N)NC(=O)[C@H](CCC(=O)O)NC(=O)[C@H](CCSC)NC(=O)[C@H](C)NC(=O)[C@@H]1CCCN1C(=O)[C@@H]1CCCN1C(=O)[C@@H]1CCCN1C(=O)[C@H](CCSC)NC(=O)[C@H](CC(C)C)NC(=O)[C@H](CC(N)=O)NC(=O)[C@H](Cc1c[nH]c2ccccc12)NC(=O)[C@@H](N)CCSC)C(=O)O | Protein PALS1 (PALS1, Homo sapiens, UniProt Q8N3R9, F318W) | SPR |  | pH 7.4, 25 °C, together with: PALS1 PDZ F318W |  | Kd | 18000 ± 2000 nM
Fc1ccc(CNc2ncnc3ccc(F)cc23)cc1 | L/N | viral replication, Gaussia luciferase reporter |  |  |  | EC50 | 4850 nM
C[C@H](NP(=O)(Nc1ccn([C@H]2CS[C@@H](CO)O2)c(=O)n1)N[C@@H](C)C(=O)OCc1ccccc1)C(=O)OCc1ccccc1 | Caco-2 | cell proliferation |  | 3 d |  | IC50 | > 250000 nM
CCC1C(=O)N(C2CCN(CCCc3ccccc3)CC2)c2ccccc21 (stereo not shown) | OPRM1 (Homo sapiens, UniProt P35372) | radioligand displacement |  | together with: [3H]DAMGO |  | Ki | 10.2 ± 0.26 nM
C[C@H](NP(=O)(Nc1ccn([C@H]2CS[C@@H](COP(=O)(N[C@@H](C)C(=O)OCc3ccccc3)N[C@@H](C)C(=O)OCc3ccccc3)O2)c(=O)n1)N[C@@H](C)C(=O)OCc1ccccc1)C(=O)OCc1ccccc1 | HeLa TK-deficient | cell proliferation |  | 3 d |  | IC50 | > 250000 nM
O=C1Cc2ccccc2N1C1CCN([C@@H]2CC[C@@H]3CCCc4cccc2c43)CC1 | OPRK1 (Homo sapiens, UniProt P41145) | radioligand displacement |  | together with: tritiated U-69593 |  | Ki | 814 ± 35.6 nM
CCOP(=O)(OCC)Oc1ccc([N+](=O)[O-])cc1 | Ace (Anopheles gambiae, UniProt Q869C3) | enzyme inhibition, inhibitor |  | together with: acetylthiocholine 600 µM |  | Kd | 1000 ± 140 nM
CCC1C(=O)N(C2CCN(Cc3cccc4[nH]ccc34)CC2)c2ccccc21 (stereo not shown) | OPRL1 | agonist | cell membranes |  |  | EC50 | 82 ± 16.4 nM
NC(=O)c1cccc2c1-c1ccccc1C2=O | Ricin, A chain (Ricinus communis, UniProt P02879) | binding, SPR |  |  |  | Kd | 153000 nM
